# Measured values collected from several papers.
# Numbered parts are unrelated; each lists some results of a single study. Several values in a cell are separate wells, animals, samples, runs or records.
# UniProt O43683, sequence (whole entry, looked up): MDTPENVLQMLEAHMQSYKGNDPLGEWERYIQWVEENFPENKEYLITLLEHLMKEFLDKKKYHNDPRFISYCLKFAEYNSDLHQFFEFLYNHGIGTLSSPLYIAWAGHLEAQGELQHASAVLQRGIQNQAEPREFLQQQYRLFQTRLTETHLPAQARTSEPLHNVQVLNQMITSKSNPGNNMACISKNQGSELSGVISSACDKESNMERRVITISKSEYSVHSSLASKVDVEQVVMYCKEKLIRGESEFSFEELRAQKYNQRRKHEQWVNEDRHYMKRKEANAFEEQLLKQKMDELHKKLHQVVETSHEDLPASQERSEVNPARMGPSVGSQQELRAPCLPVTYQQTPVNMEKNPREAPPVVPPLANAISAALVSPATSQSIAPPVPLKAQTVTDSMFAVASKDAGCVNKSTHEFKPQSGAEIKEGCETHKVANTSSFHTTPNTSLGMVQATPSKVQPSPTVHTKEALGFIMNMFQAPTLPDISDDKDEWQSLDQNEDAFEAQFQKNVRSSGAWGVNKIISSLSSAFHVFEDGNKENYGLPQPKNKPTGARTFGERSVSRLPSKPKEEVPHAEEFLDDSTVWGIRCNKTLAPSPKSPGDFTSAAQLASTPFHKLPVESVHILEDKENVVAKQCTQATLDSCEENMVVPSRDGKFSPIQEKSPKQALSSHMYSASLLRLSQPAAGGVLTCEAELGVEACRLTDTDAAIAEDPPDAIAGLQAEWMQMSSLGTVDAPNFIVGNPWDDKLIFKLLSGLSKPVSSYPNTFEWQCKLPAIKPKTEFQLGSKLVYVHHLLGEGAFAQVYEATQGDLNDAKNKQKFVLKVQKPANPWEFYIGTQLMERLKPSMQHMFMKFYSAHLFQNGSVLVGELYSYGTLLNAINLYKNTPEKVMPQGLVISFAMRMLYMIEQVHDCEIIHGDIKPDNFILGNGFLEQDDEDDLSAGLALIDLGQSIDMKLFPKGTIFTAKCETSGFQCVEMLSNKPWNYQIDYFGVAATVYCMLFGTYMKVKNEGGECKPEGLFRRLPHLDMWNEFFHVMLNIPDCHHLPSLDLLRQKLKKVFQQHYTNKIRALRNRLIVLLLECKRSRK
# UniProt O95382, sequence (whole entry, looked up): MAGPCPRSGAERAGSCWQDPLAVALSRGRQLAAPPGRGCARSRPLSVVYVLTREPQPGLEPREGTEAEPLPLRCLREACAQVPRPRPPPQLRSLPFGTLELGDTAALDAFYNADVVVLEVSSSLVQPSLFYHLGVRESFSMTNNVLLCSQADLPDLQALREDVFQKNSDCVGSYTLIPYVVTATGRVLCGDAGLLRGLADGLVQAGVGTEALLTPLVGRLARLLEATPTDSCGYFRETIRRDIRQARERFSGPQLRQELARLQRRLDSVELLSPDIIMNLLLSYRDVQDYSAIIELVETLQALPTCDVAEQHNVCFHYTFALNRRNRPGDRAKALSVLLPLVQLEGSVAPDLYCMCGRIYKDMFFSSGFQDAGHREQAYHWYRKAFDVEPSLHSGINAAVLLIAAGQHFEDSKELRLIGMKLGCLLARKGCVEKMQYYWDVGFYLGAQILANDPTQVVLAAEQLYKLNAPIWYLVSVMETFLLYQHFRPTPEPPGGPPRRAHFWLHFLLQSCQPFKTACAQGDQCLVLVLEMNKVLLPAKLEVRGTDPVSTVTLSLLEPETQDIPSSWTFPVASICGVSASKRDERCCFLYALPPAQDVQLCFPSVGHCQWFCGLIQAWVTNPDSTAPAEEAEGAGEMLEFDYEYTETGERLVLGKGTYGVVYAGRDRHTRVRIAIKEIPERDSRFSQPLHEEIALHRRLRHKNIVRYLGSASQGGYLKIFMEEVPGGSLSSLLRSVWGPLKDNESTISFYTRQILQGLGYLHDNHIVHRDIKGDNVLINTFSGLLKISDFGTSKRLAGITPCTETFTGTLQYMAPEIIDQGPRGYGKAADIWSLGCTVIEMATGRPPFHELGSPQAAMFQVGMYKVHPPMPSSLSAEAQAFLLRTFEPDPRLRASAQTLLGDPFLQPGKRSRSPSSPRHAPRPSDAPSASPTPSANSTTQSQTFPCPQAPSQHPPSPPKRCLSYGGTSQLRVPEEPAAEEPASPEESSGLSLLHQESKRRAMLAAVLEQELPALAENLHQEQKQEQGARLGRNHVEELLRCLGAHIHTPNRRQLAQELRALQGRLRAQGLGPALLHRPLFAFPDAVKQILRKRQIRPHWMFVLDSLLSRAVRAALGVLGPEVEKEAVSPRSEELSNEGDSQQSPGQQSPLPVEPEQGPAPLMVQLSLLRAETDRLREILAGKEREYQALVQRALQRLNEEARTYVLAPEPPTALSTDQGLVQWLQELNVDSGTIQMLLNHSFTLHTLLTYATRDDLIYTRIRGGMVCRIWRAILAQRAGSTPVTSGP
# UniProt P51957, sequence (whole entry, looked up): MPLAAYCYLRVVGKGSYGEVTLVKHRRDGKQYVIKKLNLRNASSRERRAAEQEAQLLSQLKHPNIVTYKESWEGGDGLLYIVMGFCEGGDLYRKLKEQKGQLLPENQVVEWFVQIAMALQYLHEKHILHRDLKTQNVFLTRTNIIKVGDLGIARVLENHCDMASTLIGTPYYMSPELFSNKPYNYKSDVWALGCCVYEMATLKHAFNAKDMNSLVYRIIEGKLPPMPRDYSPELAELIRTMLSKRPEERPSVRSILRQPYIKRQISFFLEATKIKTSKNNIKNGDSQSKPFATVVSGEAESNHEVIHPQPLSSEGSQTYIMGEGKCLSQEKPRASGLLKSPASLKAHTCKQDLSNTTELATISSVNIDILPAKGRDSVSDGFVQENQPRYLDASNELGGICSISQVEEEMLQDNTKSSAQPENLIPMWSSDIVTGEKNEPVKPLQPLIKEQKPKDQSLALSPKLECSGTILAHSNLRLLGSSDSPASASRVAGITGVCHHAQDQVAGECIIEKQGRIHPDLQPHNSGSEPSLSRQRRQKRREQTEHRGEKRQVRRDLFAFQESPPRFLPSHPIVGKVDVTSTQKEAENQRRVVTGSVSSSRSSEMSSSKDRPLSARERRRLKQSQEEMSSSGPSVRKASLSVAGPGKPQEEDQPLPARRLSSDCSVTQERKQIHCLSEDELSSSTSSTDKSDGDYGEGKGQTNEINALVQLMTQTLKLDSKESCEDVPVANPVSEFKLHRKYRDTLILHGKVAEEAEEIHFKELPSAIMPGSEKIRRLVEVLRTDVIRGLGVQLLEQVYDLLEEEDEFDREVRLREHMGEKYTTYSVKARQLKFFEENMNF
# UniProt Q8IVH8, sequence (whole entry, looked up): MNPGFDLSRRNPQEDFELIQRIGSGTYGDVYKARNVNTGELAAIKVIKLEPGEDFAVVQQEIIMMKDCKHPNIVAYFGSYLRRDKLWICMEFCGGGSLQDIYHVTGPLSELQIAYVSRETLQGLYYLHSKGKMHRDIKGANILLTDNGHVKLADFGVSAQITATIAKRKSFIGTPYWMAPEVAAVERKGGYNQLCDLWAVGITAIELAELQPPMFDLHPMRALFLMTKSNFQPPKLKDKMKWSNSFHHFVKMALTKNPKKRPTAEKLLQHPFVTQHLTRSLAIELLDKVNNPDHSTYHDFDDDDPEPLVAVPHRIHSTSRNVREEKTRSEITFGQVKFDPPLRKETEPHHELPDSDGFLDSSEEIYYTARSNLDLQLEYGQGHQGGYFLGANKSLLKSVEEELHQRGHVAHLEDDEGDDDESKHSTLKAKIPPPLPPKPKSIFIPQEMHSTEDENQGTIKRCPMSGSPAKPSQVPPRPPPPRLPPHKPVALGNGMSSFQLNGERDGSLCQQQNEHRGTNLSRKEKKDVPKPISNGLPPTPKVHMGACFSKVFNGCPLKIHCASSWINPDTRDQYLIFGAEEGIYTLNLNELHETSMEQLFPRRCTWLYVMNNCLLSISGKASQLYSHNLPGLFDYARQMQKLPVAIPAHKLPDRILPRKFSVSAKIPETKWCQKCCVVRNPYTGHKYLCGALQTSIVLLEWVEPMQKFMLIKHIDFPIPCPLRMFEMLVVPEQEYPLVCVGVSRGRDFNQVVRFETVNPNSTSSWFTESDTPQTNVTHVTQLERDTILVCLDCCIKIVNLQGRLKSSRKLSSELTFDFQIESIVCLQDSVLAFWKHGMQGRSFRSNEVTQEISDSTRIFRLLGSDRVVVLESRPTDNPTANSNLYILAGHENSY

# Sample 1
# SMILES: N#Cc1c(Oc2ccc(F)c(NC(=O)Cc3cccc(C(F)(F)F)c3)c2)ccc2nc(NC(=O)C3CC3)sc12
# Target: Receptor-interacting serine/threonine-protein kinase 3 (RIPK3, Homo sapiens, UniProt Q9Y572)
# UniProt Q9Y572, sequence (whole entry, looked up): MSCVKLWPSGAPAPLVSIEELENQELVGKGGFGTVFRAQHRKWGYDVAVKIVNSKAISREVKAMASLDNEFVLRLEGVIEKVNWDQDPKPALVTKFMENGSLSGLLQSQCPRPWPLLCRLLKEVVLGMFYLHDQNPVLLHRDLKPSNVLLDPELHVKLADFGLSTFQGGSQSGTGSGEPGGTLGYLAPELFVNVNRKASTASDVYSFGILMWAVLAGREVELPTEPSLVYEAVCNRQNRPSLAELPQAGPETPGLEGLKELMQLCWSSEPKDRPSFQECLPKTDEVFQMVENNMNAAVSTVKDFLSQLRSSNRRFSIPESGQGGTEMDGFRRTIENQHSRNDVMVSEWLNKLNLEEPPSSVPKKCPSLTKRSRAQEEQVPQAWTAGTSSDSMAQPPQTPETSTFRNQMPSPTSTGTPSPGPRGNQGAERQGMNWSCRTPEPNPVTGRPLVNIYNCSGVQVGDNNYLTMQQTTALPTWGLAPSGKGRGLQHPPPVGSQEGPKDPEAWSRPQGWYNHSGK
# Action: inhibitor
# Time: 1 h
test,setting,inhibition [%]
"kinase activity, ADP-Glo",500 nM,92.5
"kinase activity, ADP-Glo",62.5 nM,66.8
"enzyme activity, ADP detection",1 µM,96.6
"kinase activity, ADP-Glo",125 nM,86.2
"kinase activity, ADP-Glo",31.25 nM,55.4

# Sample 2
# Cell line: mouse MPNST tumor cells
# Method: high-content immunofluorescence imaging
# Item: nuclear SOX9
# Concentration: 10 µM
# Time: 12 h
# Notes: mean of 2 replicates
# Reference: DMSO control
# Direction: higher = more nuclear SOX9
Compound,nuclear SOX9 intensity
COc1cc(C(=O)N2CCOCC2)cc(OC)c1OC,94.8 % of DMSO
CNC(C)CCC=C(C)C (stereo not shown),92.8 % of DMSO
C[C@]12C=CC(=O)C=C1CC[C@@H]1[C@@H]2[C@@H](O)C[C@@]2(C)[C@H]1CC[C@]2(O)C(=O)CO,79.1 % of DMSO and 72.7 % of DMSO
O=C(OC(C(F)(F)F)C(F)(F)F)N1CCN(Cc2cccc(Oc3ccccc3)c2)CC1,103 % of DMSO
Cc1cc(-c2nncc3c(C(C)(C)C)c(OCc4ncnn4C)nn23)no1,90.6 % of DMSO
CC[C@H](NC(=O)c1c(C)c(-c2ccccc2)nc2ccccc12)c1ccccc1,111 % of DMSO
O=S(=O)(N[C@H](CO)C(C(F)(F)F)C(F)(F)F)c1ccc(Cl)s1,100 % of DMSO

# Sample 3
# SMILES: C[C@@H](c1cccc(C#N)c1)n1cc(Cl)cc(C(N)=O)c1=N
# Concentration: 1 µM
target,test,remaining binding [%]
"Phosphorylase b kinase gamma catalytic chain, liver/testis isoform (PHKG2, Homo sapiens, UniProt P15735)","cell-free assay, competition with immobilised ligand",100
"Serine/threonine-protein kinase Nek4 (NEK4, Homo sapiens, UniProt P51957)","cell-free assay, competition with immobilised ligand",96
"Tyrosine-protein kinase ABL1, phosphorylated (ABL1, Homo sapiens, UniProt P00519, Q252H)","cell-free assay, competition with immobilised ligand",78
"Mitogen-activated protein kinase kinase kinase kinase 3 (MAP4K3, Homo sapiens, UniProt Q8IVH8)","cell-free assay, competition with immobilised ligand",100
"MAP kinase-activated protein kinase 2 (MAPKAPK2, Homo sapiens, UniProt P49137)","cell-free assay, competition with immobilised ligand",97
"Calcium/calmodulin-dependent protein kinase type 1D (CAMK1D, Homo sapiens, UniProt Q8IU85)","cell-free assay, competition with immobilised ligand",98
"Ankyrin repeat and protein kinase domain-containing protein 1 (ANKK1, Homo sapiens, UniProt Q8NFD2)","cell-free assay, competition with immobilised ligand",95
"Beta-adrenergic receptor kinase 1 (GRK2, Homo sapiens, UniProt P25098)","cell-free assay, competition with immobilised ligand",78
"Platelet-derived growth factor receptor alpha (PDGFRA, Homo sapiens, UniProt P16234)","cell-free assay, competition with immobilised ligand",100
"LIM domain kinase 2 (LIMK2, Homo sapiens, UniProt P53671)","cell-free assay, competition with immobilised ligand",100
"Mitotic checkpoint serine/threonine-protein kinase BUB1 (BUB1, Homo sapiens, UniProt O43683)","cell-free assay, competition with immobilised ligand",93
"Serine/threonine-protein kinase STK11 (STK11, Homo sapiens, UniProt Q15831)","cell-free assay, competition with immobilised ligand",74
"Serine/threonine-protein kinase RIO3 (RIOK3, Homo sapiens, UniProt O14730)","cell-free assay, competition with immobilised ligand",87
"Mitogen-activated protein kinase kinase kinase 6 (MAP3K6, Homo sapiens, UniProt O95382)","cell-free assay, competition with immobilised ligand",79
"Receptor-type tyrosine-protein kinase FLT3 (FLT3, Homo sapiens, UniProt P36888, R834Q)","cell-free assay, competition with immobilised ligand",100
"Serine/threonine-protein kinase MRCK gamma (CDC42BPG, Homo sapiens, UniProt Q6DT37)",competition binding,100
"Serine/threonine-protein kinase pim-3 (PIM3, Homo sapiens, UniProt Q86V86)","cell-free assay, competition with immobilised ligand",100
"Casein kinase I isoform alpha (CSNK1A1, Homo sapiens, UniProt P48729)","cell-free assay, competition with immobilised ligand",81

# Sample 4
# Target: Beta-1 adrenergic receptor (ADRB1, Homo sapiens, UniProt P08588)
# UniProt P08588, sequence (whole entry, looked up): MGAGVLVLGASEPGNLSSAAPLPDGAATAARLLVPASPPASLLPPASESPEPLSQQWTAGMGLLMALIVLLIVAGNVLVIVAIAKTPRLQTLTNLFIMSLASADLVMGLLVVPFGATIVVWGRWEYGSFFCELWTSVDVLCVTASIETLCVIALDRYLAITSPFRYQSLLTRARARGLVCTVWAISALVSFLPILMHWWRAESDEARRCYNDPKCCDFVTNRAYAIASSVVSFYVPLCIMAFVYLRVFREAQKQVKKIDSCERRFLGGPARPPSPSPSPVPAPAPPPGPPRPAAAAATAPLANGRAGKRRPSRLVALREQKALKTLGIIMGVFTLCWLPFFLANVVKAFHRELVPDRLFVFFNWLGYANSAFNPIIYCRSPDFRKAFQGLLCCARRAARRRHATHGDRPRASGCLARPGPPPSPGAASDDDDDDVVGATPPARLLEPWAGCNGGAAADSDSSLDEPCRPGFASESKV
# Action: antagonist
Compound,IC50
Cc1noc2c(NC3CCOCC3)cc(-c3ccccn3)nc12,≥ 100 µM
Cc1noc2c(-c3cccnc3NC3CCN(C)CC3)cc(-c3ccccc3)nc12,≥ 100 µM
COc1ccc([S+](=O)([O-])N2CCN(c3ccccc3OC)CC2)cc1C,≥ 100 µM
O=C(Nc1cccc(C(F)(F)F)c1)N[C@H]1CO[C@H]2[C@@H]1OC[C@@H]2Nc1nccc(C2CCCC2)n1,11.2 µM
O=C(Cc1ccccc1)Nc1ccc([C@@H](O)[C@H]2COCC(=O)N2Cc2ccccc2F)cc1,≥ 100 µM
CN(C)c1cccc(C(=O)Nc2ncc(-c3cnn(C)c3)c3c2OCC3)c1,≥ 100 µM
CC(C(O)c1ccccc1)N(C)CCOC(c1ccccc1)c1ccccc1 (stereo not shown),≥ 100 µM

# For quick reference, copied from above (sample 1):
test,setting,inhibition [%]
"enzyme activity, ADP detection",1 µM,96.6
"kinase activity, ADP-Glo",62.5 nM,66.8
"kinase activity, ADP-Glo",500 nM,92.5
